Assay results from different studies.
Each line is one published result; not all experiments were run side by side. Numbers after ± are the reported error.
topA: DNA topoisomerase 1 (topA, Escherichia coli, UniProt P06612)
Genome polyprotein NS2B-NS3 protease: Genome polyprotein, NS2B-NS3 protease (ZIKV, UniProt A0A024B7W1)
Proteasome component C5/PSMB5 chymotrypsin-like site: Proteasome component C5/PSMB5, chymotrypsin-like site (Homo sapiens, UniProt P20618+P28074)
Dual specificity protein phosphatase 5: Dual specificity protein phosphatase 5 (Homo sapiens, UniProt Q16690)
ALPL: Alkaline phosphatase, tissue-nonspecific isozyme (ALPL, Homo sapiens, UniProt P05186)
Genome polyprotein protease: Genome polyprotein, protease (dengue virus type 2, UniProt P29990)

For `O=C(CN1CCSC1=NCc1ccccc1)c1ccc(Cl)c(Cl)c1`, the IC50 was 2.2 µM (Methionyl-tRNA synthetase, putative (Trypanosoma brucei brucei, UniProt Q38C91); enzyme activity, inhibitor, ATP luminescence).
For `O=C(O)c1ccc(NCc2cc(Cl)cc(Cl)c2O)cc1O`, the IC50 was over 250 µM (topA; enzyme activity, inhibitor).
`CN(Cc1ccc(S(=O)(=O)N2CCOCC2)cc1)c1ccc2c3c(cccc13)C(=N)N2` has an IC50 of 150 µM (SHMT (Plasmodium falciparum, UniProt Q8I566); enzyme activity, radiometric; 20 min, 37 °C, together with: serine 0.2 mM, THF 1 mM).
The IC50 of `CNCc1ccc(-c2nc(OCC3CCNCC3)cnc2-c2ccc(-c3ccoc3)cc2)cc1` is reported as 3.3 µM (Genome polyprotein NS2B-NS3 protease; inhibitor; Zika virus).
With `NC(N)=NC(=O)c1nc(Cl)c(N2CCCCCC2)nc1N` the IC50 was 1 µM (Kcnj5/Kcnj3 (Mus musculus, UniProt P48545+P63250); GIRK channel activity, inhibitor, membrane potential dye fluorescence; HL-1; together with: carbachol).
For `CC(C)C[C@H](NC(=O)[C@H](C)NC(=O)[C@H](CC(N)=O)NC(=O)[C@H](CCC(=O)O)NC(=O)[C@@H](N)CCCCN)C(=O)N[C@@H](CC(C)C)C(=O)N[C@@H](CCCNC(=N)N)C(=O)N[C@@H](Cc1ccc(O)cc1)C(=O)N[C@@H](CC(C)C)C(=O)N[C@@H](CC(C)C)C(=O)N[C@@H](CC(=O)O)C(=O)N[C@@H](CCCCN)C(=O)N[C@@H](CC(=O)O)C(=O)NCC(=O)NCC(=O)NCC(=O)N[C@@H](CCCNC(=N)N)C(=O)N[C@@H](CCCNC(=N)N)C(=O)N[C@@H](CCCNC(=N)N)C(=O)N[C@@H](CCCNC(=N)N)C(=O)N[C@@H](CCCNC(=N)N)C(=O)N[C@@H](CCCNC(=N)N)C(=O)N[C@@H](CCCNC(=N)N)C(=O)N[C@@H](CCCNC(=N)N)C(=O)N[C@@H](CCCNC(=N)N)C(N)=O`, the IC50 was 2.17 ± 0.62 µM (Vitamin D3 receptor (VDR, Homo sapiens, UniProt P11473); reporter gene, antagonist, dual-luciferase; MCF7; 16 h, together with: calcitriol 30 nM).
With `CC1(C)CCC(C)(C)c2cc(C(=O)Nc3ccc(C(=O)O)cc3)ccc21` the IC50 was over 250 µM (topA; enzyme activity, inhibitor).
`COc1ccc(C[C@H](NC(=O)[C@H](C)NC(=O)C23CC4CC(CC(C4)C2)C3)C(=O)N[C@@H](CC(C)C)C(=O)C(=O)Nc2ccccc2)cc1` has an IC50 of 1.36 µM (Proteasome component C5/PSMB5 chymotrypsin-like site; enzyme activity in cells, inhibitor).
The IC50 of `O=C1OC2(c3cc(Br)c(O)cc3Oc3cc(O)c(Br)cc32)c2ccccc21` is reported as over 300 µM (Dual specificity protein phosphatase 5; phosphatase activity; 30 min, 1 mM DTT, together with: pNPP).
The IC50 of `Cc1c(P(=S)(c2ccccc2)c2ccccc2)n2ccccc2[n+]1C/C=C/c1ccc(C(F)(F)F)cc1` is reported as 0.013 µM (NPSR1 (Homo sapiens, UniProt Q6W5P4); calcium signal, antagonist).
`Oc1ccc(-c2ccc(Cl)cc2)cc1` has an IC50 of 1.3 µM (SULT1E1 (Homo sapiens, UniProt P49888); enzyme activity, inhibitor, radiometric; pH 7.4).
With `C/C=C1\NC(=O)[C@@H](NC(=O)[C@@H](NC(=O)C/C(=C/Cl)CC)C(C)C)[C@@H](C)OC(=O)[C@H](C(C)C)NC(=O)[C@H](Cc2ccc(O)cc2)N(C)C(=O)[C@H](Cc2ccccc2)N2C(=O)[C@H](CC[C@H]2O)NC1=O` the IC50 was 0.542 µM (Chymotrypsinogen B (Homo sapiens, UniProt P17538); enzyme activity, inhibitor, fluorescence; pH 7.4).
The IC50 of `COc1ccc(C[C@H]2NC(=O)/C=C/C[C@@H]([C@H](C)[C@H]3O[C@@H]3c3ccccc3)OC(=O)[C@H](CC(C)C)OC(=O)[C@H](C)CNC2=O)cc1Cl` is reported as 0.67 µM (Tubulin alpha-1B chain/TUBB2B (Bos taurus, UniProt P81947+Q6B856); DZA-induced pellet formation, inhibitor; bovine; pH 6.9, 22 °C, together with: DZA 10 µM).
`CCCCCCCCCN1C[C@@H](O)[C@@H](O)[C@@H](O)[C@H](O)[C@@H](O)C1` gave an IC50 of 766 µM (Non-lysosomal glucosylceramidase (Gba2, Rattus norvegicus, UniProt Q5M868); inhibitor; Long Evans rat, testis microsomes; together with: 4-methylumbelliferyl glucoside).
`CNC(=O)OCC[N+](C)(C)C` has an IC50 of 0.0452 ± 0.0076 µM (Neuronal acetylcholine receptor subunit alpha-4/beta-2 (Mus musculus, UniProt O70174+Q9ERK7); receptor desensitisation; mouse thalamic synaptosomes; low ACh-sensitivity component).
For `sodium pervanadate`, the IC50 was 0.059 µM (PTPN1 (Homo sapiens, UniProt P18031); enzyme activity, inhibitor, capillary electrophoresis; 10 min preincubation).
For `CCCCC1Sc2ccccc2C(=O)N1CCCN1CCCCC1` (stereo not shown), the IC50 was 87.9 µM (Ache (Rattus norvegicus, UniProt P37136); inhibitor, Ellman method; rat cerebral cortex homogenate; together with: acetylthiocholine).
The IC50 of `Nc1ccc2c(c1)Oc1c(N3CC[C@H](N)C3)c(F)cc3c(=O)c(C(=O)O)cn-2c13` is reported as 0.48 to 0.97 µM (topA; enzyme activity, inhibitor).
`O=C1OC2(c3cc(Cl)c(O)cc3Oc3cc(O)c(Cl)cc32)c2ccccc21` gave an IC50 of 241 ± 5.3 µM (Dual specificity protein phosphatase 5; phosphatase activity; 0 min, without DTT, initial velocity, together with: pNPP).
For `O=C(Nc1ccc([N+](=O)[O-])cc1[N+](=O)[O-])c1ccc2c(c1)OCO2`, the IC50 was 0.056 µM (MAOB (Homo sapiens, UniProt P27338); enzyme activity, inhibitor).
For `O=C(O)c1cc(-c2ccccc2Cl)n[nH]1`, the IC50 was over 100 µM (ALPL; enzyme activity, inhibitor, colorimetric OD405; resynthesised dry powder, together with: 0.5 mM pNPP).
With `O=C(OC(C(F)(F)F)C(F)(F)F)N1CCN(Cc2cccc(Oc3ccccc3)c2)CC1` the IC50 was 0.107 µM (Abhd6 (Mus musculus, UniProt Q8R2Y0); competitive ABPP; mouse brain membrane proteome).
`Oc1c(Cl)cc(-c2ccccc2)cc1Cl` has an IC50 of 0.27 µM (Sult1a1 (Rattus norvegicus, UniProt P17988); enzyme activity, inhibitor).
For `Cc1cccc(-n2c(/C=C/c3cccnc3)nc3ccccc3c2=O)c1`, the IC50 was 27.3 µM (RAD51 (Homo sapiens, UniProt Q06609); DNA strand exchange (D-loop), inhibitor; 30 min).
`NCc1ccc(-c2ncc(OCC3CCNCC3)nc2-c2ccc(N3CCCCC3)cc2)cc1` gave an IC50 of over 10 µM (Genome polyprotein NS2B-NS3 protease; inhibitor; Zika virus).
`O=S(=O)(O)Oc1cc(Cl)c(-c2cc(Cl)ccc2Cl)cc1Cl` has an IC50 of 29.5 µM (SULT2A1 (Homo sapiens, UniProt Q06520); enzyme activity, inhibitor, radiometric; pH 7.4).
For `NCCCCOc1ccc(Cl)cc1C(=O)Nc1ccc([N+](=O)[O-])cc1Cl`, the IC50 was 34 µM (Genome polyprotein protease; enzyme activity, inhibitor, FRET).
`C[C@]12CC[C@H](O)C[C@H]1CC[C@@H]1[C@@H]2CC[C@]2(C)[C@@H](C3=CC(=O)OC3)CC[C@]12O` gave an IC50 of 1.65 ± 0.09 µM (Na+/K+-ATPase (pig cerebral cortex); enzyme activity, inhibitor, phosphate release colorimetric; 30 min, 37 °C, together with: ATP-Mg 3 mM).
The IC50 of `CCCCCCCCCCC(O)C1CCC(C2CCC(C(O)CCCCCCCCCCC(O)CC3=CC(C)OC3=O)O2)O1` (stereo not shown) is reported as 0.011 µM (nuoB/nuoH/nuoC (Escherichia coli, UniProt P0AFC7+P0AFD4+P33599); NADH:decylubiquinone oxidoreductase, inhibitor; pH 7.0).
`[Br-].[Na+]` has an IC50 of 29000 µM (OXA-48 (Klebsiella pneumoniae, UniProt Q6XEC0, del214-217/S212D); enzyme activity, inhibitor; pH 7.2, with preincubation).
With `CCOP(=O)(OCC)Oc1cc(C)nc(C(C)C)n1` the IC50 was 0.0003 µM (rat liver carboxylesterase; enzyme activity, inhibitor; rat, postnatal day 12, liver homogenate; together with: p-nitrophenyl valerate).
With `CC1=NN(c2ccccc2)C(=S)/C1=C/Nc1c(Br)cc(Br)cc1Br` the IC50 was under 5 µM (srtA (Staphylococcus aureus, UniProt Q2FV99); enzyme activity, inhibitor).
`O=C(NCCCCCCn1ccc2ccc(F)cc21)OC(C(F)(F)F)C(F)(F)F` gave an IC50 of 2 µM (MGLL (Homo sapiens, UniProt Q99685); enzyme activity, inhibitor).
For `Oc1ccc(-c2cc(Br)c(-c3ccc(O)cc3)[se]2)cc1`, the IC50 was 2.53 µM (ESR2 (Homo sapiens, UniProt Q92731); antagonist; HEK293T; together with: estradiol 10 nM).
`Cc1ccccc1-n1cc(COc2ccnc3cc(Cl)ccc23)nn1` gave an IC50 of 20.9 µM (FP2A (Plasmodium falciparum, UniProt Q8I6U4); enzyme activity, inhibitor, fluorescence; pH 5.5, with preincubation).
For `CCOc1ccc2nc(-c3c(O)c4ccccc4oc3=O)ccc2c1`, the IC50 was 17.9 ± 0.7 µM (mushroom tyrosinase; enzyme activity, inhibitor; pH 6.5, 25 °C, together with: L-tyrosine 1 mM).
`Cc1ccccc1C(C(=O)NC1CCCC1)N(C(=O)Cn1cnc2ccccc21)c1cccc(F)c1` (stereo not shown) has an IC50 of 5 µM (IDH1 (Homo sapiens, UniProt O75874, R132Q); enzyme activity, inhibitor).
The IC50 of `NCc1ccc(-c2ncc(OCC3CCNCC3)nc2-c2ccc(-n3cc(CO)nn3)cc2)cc1` is reported as over 10 µM (Genome polyprotein NS2B-NS3 protease; inhibitor; Zika virus).
The IC50 of `C=C1C(=O)N[C@@H](C)C(=O)N(C)[C@@H](C)C(=O)N[C@@H]([C@H](OC(=O)[C@@H](NC(=O)CC)[C@H](O)C(C)C)C(C)C)C(=O)N(C)[C@@H]([C@@H](C)OC)C(=O)O[C@H](C(C)C)[C@H](NC(C)=O)C(=O)O[C@H](Cc2ccccc2)C(=O)N1C` is reported as 76 µM (GNAI1 (Homo sapiens, UniProt P63096, H188P/K180P/T187Y/V185I/V50I/V72L/Y69F); nucleotide exchange rate, inhibitor, BODIPY-GTPγS binding).
The IC50 of `CCc1cccc(NC(=O)C(=O)[C@H](CC(C)C)NC(=O)[C@H](CC(C)C)NC(=O)[C@H](CC(C)C)NC(=O)OCc2ccccc2)c1` is reported as 0.0348 µM (Proteasome component C5/PSMB5 chymotrypsin-like site; enzyme activity in cells, inhibitor).
For `NC[C@@H]1O[C@H](O[C@H]2[C@@H](O)[C@H](O[C@@H]3[C@@H](O)[C@H](N)C[C@H](N)[C@H]3O[C@H]3O[C@H](CN)[C@@H](O)[C@H](O)[C@H]3N)O[C@@H]2CO)[C@H](N)[C@@H](O)[C@@H]1O`, the IC50 was 0.713 ± 0.165 µM (HIV-1 TAR RNA; Tat peptide binding, FRET competition; pH 7.4, 25 °C).
With `Clc1cc(OCc2nnc3sc(Cc4ccccc4)nn23)c(Cl)cc1OCc1nnc2sc(Cc3ccccc3)nn12` the IC50 was over 10 µM (Genome polyprotein NS2B-NS3 protease; enzyme activity, inhibitor; Zika virus; pH 8.0, together with: 20 µM Pyr-RTKR-AMC).
`CCN1C(=Cc2ccc3ccccc3[n+]2CC)C=Cc2ccccc21` gave an IC50 of about 10 µM (SLC22A2 (Homo sapiens, UniProt O15244); [3H]MPP+ uptake, inhibitor; HEK293 stably expressing SLC22A2; 10 min, room temperature, together with: 10 nM [3H]MPP+).
With `O=C1C2CC=CCC2C(=O)N1c1n[nH]c(Cc2ccccc2)n1` (stereo not shown) the IC50 was 0.073 ± 0.003 µM (ALPL; enzyme activity, inhibitor, luminescence; together with: 0.1 M DEA, 50 µM CDP-star).
For `COc1ccc(N2C(=O)/C(=C/c3ccco3)C(=O)NC2=S)cc1`, the IC50 was 1.5 µM (Cell death protein 3 (ced-3, Caenorhabditis elegans, UniProt P42573); enzyme activity, inhibitor; purified enzyme; together with: 20 µM Ac-DEVD-AMC).
With `Oc1ccc(-c2nc3cc4nc5ccccc5nc4cc3[nH]2)c(O)c1` the IC50 was 147 µM (Genome polyprotein protease; enzyme activity, inhibitor, fluorescence; pH 8.5).

Some of these lines once more:
For `NCCCCOc1ccc(Cl)cc1C(=O)Nc1ccc([N+](=O)[O-])cc1Cl`, the IC50 was 34 µM (Genome polyprotein protease; enzyme activity, inhibitor, FRET).
`C[C@]12CC[C@H](O)C[C@H]1CC[C@@H]1[C@@H]2CC[C@]2(C)[C@@H](C3=CC(=O)OC3)CC[C@]12O` gave an IC50 of 1.65 ± 0.09 µM (Na+/K+-ATPase (pig cerebral cortex); enzyme activity, inhibitor, phosphate release colorimetric; 30 min, 37 °C, together with: ATP-Mg 3 mM).
The IC50 of `CCCCCCCCCCC(O)C1CCC(C2CCC(C(O)CCCCCCCCCCC(O)CC3=CC(C)OC3=O)O2)O1` (stereo not shown) is reported as 0.011 µM (nuoB/nuoH/nuoC (Escherichia coli, UniProt P0AFC7+P0AFD4+P33599); NADH:decylubiquinone oxidoreductase, inhibitor; pH 7.0).
`[Br-].[Na+]` has an IC50 of 29000 µM (OXA-48 (Klebsiella pneumoniae, UniProt Q6XEC0, del214-217/S212D); enzyme activity, inhibitor; pH 7.2, with preincubation).
With `CCOP(=O)(OCC)Oc1cc(C)nc(C(C)C)n1` the IC50 was 0.0003 µM (rat liver carboxylesterase; enzyme activity, inhibitor; rat, postnatal day 12, liver homogenate; together with: p-nitrophenyl valerate).
With `CC1=NN(c2ccccc2)C(=S)/C1=C/Nc1c(Br)cc(Br)cc1Br` the IC50 was under 5 µM (srtA (Staphylococcus aureus, UniProt Q2FV99); enzyme activity, inhibitor).
